Results from different studies.
A part holds a random share of what one study measured.

Sample 1
Target: Phosphate system positive regulatory protein PHO4, full length, GST-tagged (PHO4, Saccharomyces cerevisiae, UniProt P07270, residues 1-312)
Method: competition protein-binding microarray
Molecule type: double-stranded DNA, one strand shown
Medium: in vitro
Tested at: 2 µM
Notes: whole 60-bp probe, lowest competitor level
Together with: Cbf1 competitor, 0.05 µM
Reading: higher = stronger binding
Quantity: fluorescence intensity
Target sequence (chain): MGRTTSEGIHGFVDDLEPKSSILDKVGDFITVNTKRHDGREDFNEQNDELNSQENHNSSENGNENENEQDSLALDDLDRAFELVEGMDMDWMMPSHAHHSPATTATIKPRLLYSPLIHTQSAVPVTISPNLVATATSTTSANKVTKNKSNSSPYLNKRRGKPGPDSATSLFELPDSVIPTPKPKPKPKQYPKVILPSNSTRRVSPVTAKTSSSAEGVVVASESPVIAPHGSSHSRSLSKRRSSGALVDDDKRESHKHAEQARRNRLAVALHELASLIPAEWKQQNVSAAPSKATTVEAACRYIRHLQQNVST
AAATTACTAAGTTGAAACGTGGGTGACGCCGTATGAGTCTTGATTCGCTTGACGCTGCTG: 14400 a.u.
GTCTTGTCTCATTGGCTTGTGGGTGTCCCCACTTCAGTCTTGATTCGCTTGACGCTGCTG: 5350 a.u.
AAAGCGGTAATTTGTCCAGTGGGTGCAGATATCTATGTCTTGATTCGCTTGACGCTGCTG: 3980 a.u.
CCCCGAAATTGAGTGCACATGCTCGCAAGATAATATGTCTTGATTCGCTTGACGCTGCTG: 10200 a.u.
GCGCGAACAAACTTGGTCATGACAGCTCCACCGGCAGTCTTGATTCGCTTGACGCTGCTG: 2470 a.u.
AAATTACTAAGTTGATTCGTGGGTGACGCCGTATGAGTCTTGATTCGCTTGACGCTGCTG: 6640 a.u.
GTCTTGTCTCATTTTCACGTGGGCTTCCCCACTTCAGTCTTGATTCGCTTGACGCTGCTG: 13500 a.u.
ACCAAAGGGTTCTTGCGGGTGTAGATCCCAAGTCCAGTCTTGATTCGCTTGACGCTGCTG: 3090 a.u.
GTCTTGTCTCATTGTCACAAGACTTTCCCCACTTCAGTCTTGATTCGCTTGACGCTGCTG: 4280 a.u.
AGCGGGGTAACCCATCACGTGGGTAGCCATTTTTCCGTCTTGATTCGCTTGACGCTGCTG: 16200 a.u.
CTCAAGCTTATGGTTCACGTTATAGAACACAGGAGAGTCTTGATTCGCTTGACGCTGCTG: 6010 a.u.
GAAATCAGAGAAGGTCCCGTGTCGGTAGGTACCTTAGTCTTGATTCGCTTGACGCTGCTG: 6260 a.u.
GGCCAAGTTGGTTAAGGCGTGCGATTGTTAATCGCAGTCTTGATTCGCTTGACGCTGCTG: 7820 a.u.
CTAACGAAGGTTTGAGTGGTGGGTGACAAGCCAAGTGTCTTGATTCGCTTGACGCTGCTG: 4440 a.u.
CTTCTGTAAATTTTTCACGTGACGTGAAGCGCCCCGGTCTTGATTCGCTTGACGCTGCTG: 10600 a.u.
AAATTACTAAGTTTTCACGTGTTCTACCCCGTATGAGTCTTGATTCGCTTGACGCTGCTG: 15400 a.u.
CGGATCGCATTATTGCACGATATCGCCGAATCTTTAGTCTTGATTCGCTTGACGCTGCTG: 6500 a.u.
GGGACAACGGCTTGCTAGGTGCATTTACTTCATTCAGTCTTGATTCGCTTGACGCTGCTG: 3450 a.u.
TAAGGCCTTTATTGCGTCGTGCTTTCTCCTCTCATAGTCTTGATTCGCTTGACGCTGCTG: 6580 a.u.
CTTTCCCGATCTTTTCACGTGATATTAGCACATTTGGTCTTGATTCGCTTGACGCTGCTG: 12000 a.u.
GAAGTCTCCAAACTCCACGTGTTGGTATTTCTCGTAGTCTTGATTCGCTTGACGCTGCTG: 15800 a.u.
GTCCCAAGCAGCTTCATCGTGATGGTCTCCTTCAGGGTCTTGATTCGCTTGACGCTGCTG: 4850 a.u.
CAATCTCTTGAAGGCCATGTGTAGTGCAACCGGCTTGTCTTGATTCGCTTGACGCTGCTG: 7970 a.u.
TGCGCAACAACTTGGAAGGTGGGTGTATGTCTAGAAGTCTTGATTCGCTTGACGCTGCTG: 4620 a.u.
TCGCCGGACCAAGTTTCCGTGATGGTCGTTCTAGGAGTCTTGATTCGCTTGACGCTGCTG: 3760 a.u.

Sample 2
Target: Histone acetyltransferase KAT6A, both winged helices, GST fusion (KAT6A, Homo sapiens, UniProt Q92794, residues 1-181)
Method: protein binding microarray
Molecule type: double-stranded DNA, one strand shown
Medium: in vitro
Tested at: not given
Notes: 8-mer, flanks averaged, mean of 2 arrays, mostly near background
Relative to: not given
Reading: higher = stronger binding
Quantity: E-score
Target sequence (chain): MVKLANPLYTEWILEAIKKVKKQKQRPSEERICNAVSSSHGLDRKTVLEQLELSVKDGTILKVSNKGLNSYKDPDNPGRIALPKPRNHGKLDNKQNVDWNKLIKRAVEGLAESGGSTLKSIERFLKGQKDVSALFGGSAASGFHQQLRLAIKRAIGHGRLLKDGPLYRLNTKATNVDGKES
CGGGGGTC: 0.224
GCAATATA: -0.108
CCGGCCGC: 0.33
ATTGGCAA: -0.196
CTCAGACC: -0.0439
AATAACCA: -0.185
ACCGCAAT: 0.228
ACTGAAGC: -0.0171
GGGAAGAC: 0.104
ATTGGATC: -0.0947
TCCGTAGA: 0.143
CGCCACGC: 0.24
TGCTGCCA: -0.136
CCGTCGGA: 0.325
GACGATCA: -0.0496
AGCAAATC: -0.06
CTATAACA: -0.13
TCCAGGAA: -0.151
CAACGCTA: 0.0718
GCCAACGA: -0.0219
GATACCGC: 0.27
CCCATTGC: -0.144
CGTCCCAA: -0.11
GAATGTTA: 0.0335
GCTGGCTA: -0.22

Sample 3
Target: Fragile X messenger ribonucleoprotein 1, C-terminal low-complexity region (Fmr1, Mus musculus, UniProt P35922)
Method: RNA Bind-n-Seq
Molecule type: RNA
Medium: in vitro
Tested at: 200 nM
Notes: whole 134-nt RNA, ends assumed
Together with: 150 mM LiCl
Relative to: input library
Reading: higher = stronger binding
Quantity: log2 enrichment
All molecules: 7-deaza-guanosine replaces G
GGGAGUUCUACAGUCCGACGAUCCCUGUGCUACACAUCGUAUGUACCGAAUCGGGGAAAAAAAGGGGUUUUUGGGGUUUGGGGAAAGUAUUAUGUUACGCCGUUCGGAUCUGCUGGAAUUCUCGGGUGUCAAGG: -1.88
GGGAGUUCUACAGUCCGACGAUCCUCAAGUCCUGUGCUACACAUCGUAUGUACCGAAUCGGGUUGGUUGGUUGGGGAAAGUAUUAUGUUACGCCGUUCGGAUCUGCACUUCCAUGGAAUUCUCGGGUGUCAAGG: -0.375
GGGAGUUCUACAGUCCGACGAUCUAACUUUAGAGGAGGAUCUGAUGGAGAUGGCAGUGGACGUGGAUUUGGGGAUGGCUAUAAUGGGUAUGGAGGAGGACCUGGAGGUGGCAAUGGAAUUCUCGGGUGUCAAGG: 0.443
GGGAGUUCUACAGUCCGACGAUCUGUUGUCUGGGUUUGGGGGUCGAGUAGAUGCGGGGCAGCCGGAGCUGUUGACGGAAAGGAGUAGCCCCAAAGGAGGGCAUGUGAAGUCGCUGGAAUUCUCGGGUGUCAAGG: 0.308
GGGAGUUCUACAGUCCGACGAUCGUCCUGUGCUACACAUCGUAUGUACCGAAUCGGGAAAAAAAGGGUUUGGGUUUUUGGGAAAGUAUUAUGUUACGCCGUUCGGAUCUGCACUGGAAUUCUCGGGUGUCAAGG: -1.98
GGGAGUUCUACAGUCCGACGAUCUGUCAGUAUCAUACAUAACAGAGGAAUGCCUGAAGAAGCUGGACACAAAGCAGCAGACCAACACCCUGCUCAACCUGGUGUGGAGGGACUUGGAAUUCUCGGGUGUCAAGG: -1.72
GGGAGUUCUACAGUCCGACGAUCCUGUGCUACACAUCGUAUGUACCGAAUCGGGGAAAAAAAGGGAAAAAAAGGGAAAAAAAGGGAAAGUAUUAUGUUACGCCGUUCGGAUCUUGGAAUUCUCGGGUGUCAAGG: 0.388
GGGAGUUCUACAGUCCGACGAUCUGGCCCUGGUGGCAUGCGGGGGGGAAGAGGUGGCCUCAUGGAUCGUGGUGGUCCCGGUGGAAUGUUCAGAGGUGGCCGUGGUGGAGACAGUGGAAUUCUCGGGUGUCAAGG: 0.553

Sample 4
Target: RNA binding protein fox-1 homolog 2, RRM domain, GST-SBP tag (RBFOX2, Homo sapiens, UniProt O43251-10, residues 100-194)
Method: RNA Bind-n-Seq
Molecule type: RNA
Medium: in vitro
Tested at: 365 nM
Notes: natural RNA segment, single round, ends assumed
Relative to: no-protein control
Reading: higher = stronger binding
Quantity: RBNS enrichment (R)
Target sequence (chain): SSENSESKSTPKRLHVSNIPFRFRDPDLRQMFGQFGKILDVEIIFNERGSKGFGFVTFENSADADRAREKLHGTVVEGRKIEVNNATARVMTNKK
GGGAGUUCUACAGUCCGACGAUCGUGCUGUGGUGUGACCAAUGAAAAGCUGCAGUCCAGUUUUGUCCCUGGAACCUGUCCUGCACUCUUCCUGCAGUUAGGUAACUGGGGGCAUAGUCAUUCCAGUGGAGAGUUGGAAUUCUCGGGUGCCAA: 0.308
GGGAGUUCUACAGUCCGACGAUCUCCUGCAUCUUCUUACCCUUUACAAAGUCUGACCCGGCCAUUUCCAGCAGACCUGUGAGCCAGCCAGGGACCGGACUAGAAGCCAUGUUGCAUAUUGGGGUUUUUGUUUGUGGAAUUCUCGGGUGCCAA: 0.532
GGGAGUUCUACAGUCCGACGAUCUCUAUCAGGCCACCAGCAGGAAUUGAAAAUGUUUUCACAAAAAUCCUUUUCCUUAGAAAUAAAAGCUGGUGACAGAGAUGGUUUCCUUGUACCGAUAAAAACAAAACCAAUGGAAUUCUCGGGUGCCAA: 0.342
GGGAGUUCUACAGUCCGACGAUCGGAAGAUUGUUCUGACCGUCACAAAUUGUAGUGCCUGAAAACACUUAACACUGAUUGUCUAAGAGAUGAAAGUCCUCCAAAGAUGACACAGGAAAAAUACUACAAGUAAUUGGAAUUCUCGGGUGCCAA: 0.185
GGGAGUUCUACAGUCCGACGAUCAGCUGACAGGCUGUUGCUGUGCCUGCUCACACCUGCUCCUGCAGGCACACUGGGCUAGGGACGAGGAAGGAGCAGCCACAAGUGGUAGAACUGCCUUGGUGGACACCAGCUGGAAUUCUCGGGUGCCAA: 0.392
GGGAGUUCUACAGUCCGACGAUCUCACUCCCUGAUGACGUGUAGCUGCCCGCUCACUCCAUGUGAAGAAGAGCUCCAGCAGGCUACACAGAGAUGCUCAGCCCUCAGCGCUUGCAGGCUUCCCGUCACGUGUCUGGAAUUCUCGGGUGCCAA: 0.356
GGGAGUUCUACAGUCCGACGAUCUUGUCCUUACUCUUGACUCCAUCCAGAAAAGAACCAGCAUCUGCAAACGCCAUGGGUGCCGUCAGCGAGCGAAGCCUCUCGUGUCGGCUGAUAAAAGCCAGUGGCAGCUGUGGAAUUCUCGGGUGCCAA: 0.306
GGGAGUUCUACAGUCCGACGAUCUUCAGAAAGGUCAAUUCUCUUCUGUAUUCCCCCUCAACAUUUAUCUGGGUCUAAAGCUCAGCACUGAGUCACAAUUUCACACAAGAUCAAAGUGAGGCAGUGUUAGGAAAUGGAAUUCUCGGGUGCCAA: 0.173
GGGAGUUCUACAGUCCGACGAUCAUAAAUUUUAUGAACCCCAGGCAUACUGCUUGUUUUUUUAAAAAAAAAUAAAACUCAAAAUUGAUCUACAAAACACUUUGUGAUAGUAGAUUGGGGUAGAUAUUUUUACCUGGAAUUCUCGGGUGCCAA: 0.62

Excerpt of the above (sample 2):
ATTGGCAA: -0.196
CTCAGACC: -0.0439
AATAACCA: -0.185
ACCGCAAT: 0.228
ACTGAAGC: -0.0171
GGGAAGAC: 0.104
ATTGGATC: -0.0947
TCCGTAGA: 0.143
